Assay results gathered from unrelated publications.
± marks the error that the study gave.
Chain of UniProt P27448 (whole entry, looked up): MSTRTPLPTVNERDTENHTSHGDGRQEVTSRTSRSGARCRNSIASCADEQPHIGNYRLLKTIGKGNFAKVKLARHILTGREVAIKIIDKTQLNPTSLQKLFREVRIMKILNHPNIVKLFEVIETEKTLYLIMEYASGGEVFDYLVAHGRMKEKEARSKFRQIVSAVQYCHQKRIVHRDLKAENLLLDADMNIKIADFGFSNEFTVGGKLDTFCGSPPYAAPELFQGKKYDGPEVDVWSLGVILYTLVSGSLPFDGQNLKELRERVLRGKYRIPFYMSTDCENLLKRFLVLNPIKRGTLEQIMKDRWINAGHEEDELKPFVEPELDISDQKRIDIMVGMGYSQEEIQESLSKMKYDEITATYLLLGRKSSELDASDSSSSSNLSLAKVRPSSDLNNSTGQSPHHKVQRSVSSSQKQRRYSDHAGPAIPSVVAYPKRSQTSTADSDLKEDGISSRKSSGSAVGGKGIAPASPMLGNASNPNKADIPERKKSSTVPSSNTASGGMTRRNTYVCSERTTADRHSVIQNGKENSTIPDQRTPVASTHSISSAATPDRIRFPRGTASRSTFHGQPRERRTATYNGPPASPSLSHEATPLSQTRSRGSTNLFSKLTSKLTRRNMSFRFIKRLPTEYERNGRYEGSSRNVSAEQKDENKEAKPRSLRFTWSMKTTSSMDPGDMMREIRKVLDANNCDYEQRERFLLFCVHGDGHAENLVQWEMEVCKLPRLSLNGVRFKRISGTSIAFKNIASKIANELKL
Chain of UniProt Q9Y3S1 (whole entry, looked up): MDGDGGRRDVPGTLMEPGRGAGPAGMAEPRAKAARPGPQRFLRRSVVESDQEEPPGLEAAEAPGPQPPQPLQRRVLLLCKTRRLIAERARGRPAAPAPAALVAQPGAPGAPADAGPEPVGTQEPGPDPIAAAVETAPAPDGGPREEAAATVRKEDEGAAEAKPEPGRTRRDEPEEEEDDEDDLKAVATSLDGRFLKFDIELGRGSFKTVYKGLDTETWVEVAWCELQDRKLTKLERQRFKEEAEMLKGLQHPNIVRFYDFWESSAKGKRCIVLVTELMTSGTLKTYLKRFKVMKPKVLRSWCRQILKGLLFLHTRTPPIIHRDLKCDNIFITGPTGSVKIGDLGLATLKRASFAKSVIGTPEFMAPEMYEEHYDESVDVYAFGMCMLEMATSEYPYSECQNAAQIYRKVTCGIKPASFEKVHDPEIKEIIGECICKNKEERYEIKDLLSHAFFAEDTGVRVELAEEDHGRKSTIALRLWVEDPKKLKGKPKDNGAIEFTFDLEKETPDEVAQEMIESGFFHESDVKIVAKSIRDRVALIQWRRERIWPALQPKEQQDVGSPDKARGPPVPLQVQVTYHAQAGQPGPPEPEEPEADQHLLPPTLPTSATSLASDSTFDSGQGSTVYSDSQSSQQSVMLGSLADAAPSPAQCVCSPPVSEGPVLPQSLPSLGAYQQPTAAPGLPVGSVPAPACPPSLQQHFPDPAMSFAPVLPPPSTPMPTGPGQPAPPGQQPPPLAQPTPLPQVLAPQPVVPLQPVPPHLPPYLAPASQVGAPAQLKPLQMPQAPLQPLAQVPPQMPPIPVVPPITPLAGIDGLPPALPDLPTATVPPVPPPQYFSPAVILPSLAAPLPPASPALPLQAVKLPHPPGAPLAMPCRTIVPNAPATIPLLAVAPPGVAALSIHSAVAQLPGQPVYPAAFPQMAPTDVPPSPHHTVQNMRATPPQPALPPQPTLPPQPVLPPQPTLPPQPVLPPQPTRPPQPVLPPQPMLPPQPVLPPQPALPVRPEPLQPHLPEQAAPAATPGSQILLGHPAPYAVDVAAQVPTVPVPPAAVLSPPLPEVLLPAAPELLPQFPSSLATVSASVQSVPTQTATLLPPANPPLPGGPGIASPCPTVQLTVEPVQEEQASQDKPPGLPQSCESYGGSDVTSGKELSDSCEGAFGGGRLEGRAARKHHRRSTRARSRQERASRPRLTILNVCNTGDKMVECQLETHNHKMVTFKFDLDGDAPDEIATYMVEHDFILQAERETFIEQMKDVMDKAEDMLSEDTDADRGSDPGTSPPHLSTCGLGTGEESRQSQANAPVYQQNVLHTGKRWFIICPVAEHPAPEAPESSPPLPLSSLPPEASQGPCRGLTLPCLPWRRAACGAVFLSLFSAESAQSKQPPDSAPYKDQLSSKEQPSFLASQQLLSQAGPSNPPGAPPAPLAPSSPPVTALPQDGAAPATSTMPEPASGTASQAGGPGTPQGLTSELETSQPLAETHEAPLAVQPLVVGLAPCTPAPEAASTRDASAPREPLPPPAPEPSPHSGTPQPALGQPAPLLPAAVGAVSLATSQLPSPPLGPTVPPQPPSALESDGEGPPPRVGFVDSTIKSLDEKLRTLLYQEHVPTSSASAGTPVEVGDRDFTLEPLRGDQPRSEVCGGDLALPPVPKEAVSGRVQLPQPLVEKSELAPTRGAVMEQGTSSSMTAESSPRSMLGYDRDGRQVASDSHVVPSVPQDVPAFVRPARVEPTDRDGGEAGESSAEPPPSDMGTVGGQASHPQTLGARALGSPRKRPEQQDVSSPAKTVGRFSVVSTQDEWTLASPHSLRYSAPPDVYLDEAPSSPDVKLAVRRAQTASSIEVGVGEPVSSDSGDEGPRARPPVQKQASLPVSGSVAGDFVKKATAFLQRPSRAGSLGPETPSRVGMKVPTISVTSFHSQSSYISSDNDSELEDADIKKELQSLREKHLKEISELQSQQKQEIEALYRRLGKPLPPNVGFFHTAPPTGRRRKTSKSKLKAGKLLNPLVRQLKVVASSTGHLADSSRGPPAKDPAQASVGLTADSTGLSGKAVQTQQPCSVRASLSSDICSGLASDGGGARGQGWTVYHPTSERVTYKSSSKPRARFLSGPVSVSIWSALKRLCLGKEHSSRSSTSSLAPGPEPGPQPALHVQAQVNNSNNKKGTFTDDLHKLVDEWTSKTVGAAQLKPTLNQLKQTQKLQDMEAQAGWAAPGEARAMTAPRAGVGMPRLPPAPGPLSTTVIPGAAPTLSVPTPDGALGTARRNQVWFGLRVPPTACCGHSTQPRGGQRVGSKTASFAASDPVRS
Chain of UniProt P0A7A9 (whole entry, looked up): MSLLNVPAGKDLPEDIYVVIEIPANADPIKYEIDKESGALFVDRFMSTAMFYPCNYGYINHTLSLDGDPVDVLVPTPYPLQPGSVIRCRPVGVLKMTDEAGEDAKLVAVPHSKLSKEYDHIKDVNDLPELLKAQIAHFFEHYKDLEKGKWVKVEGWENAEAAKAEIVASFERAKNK
Chain of UniProt O13828 (whole entry, looked up): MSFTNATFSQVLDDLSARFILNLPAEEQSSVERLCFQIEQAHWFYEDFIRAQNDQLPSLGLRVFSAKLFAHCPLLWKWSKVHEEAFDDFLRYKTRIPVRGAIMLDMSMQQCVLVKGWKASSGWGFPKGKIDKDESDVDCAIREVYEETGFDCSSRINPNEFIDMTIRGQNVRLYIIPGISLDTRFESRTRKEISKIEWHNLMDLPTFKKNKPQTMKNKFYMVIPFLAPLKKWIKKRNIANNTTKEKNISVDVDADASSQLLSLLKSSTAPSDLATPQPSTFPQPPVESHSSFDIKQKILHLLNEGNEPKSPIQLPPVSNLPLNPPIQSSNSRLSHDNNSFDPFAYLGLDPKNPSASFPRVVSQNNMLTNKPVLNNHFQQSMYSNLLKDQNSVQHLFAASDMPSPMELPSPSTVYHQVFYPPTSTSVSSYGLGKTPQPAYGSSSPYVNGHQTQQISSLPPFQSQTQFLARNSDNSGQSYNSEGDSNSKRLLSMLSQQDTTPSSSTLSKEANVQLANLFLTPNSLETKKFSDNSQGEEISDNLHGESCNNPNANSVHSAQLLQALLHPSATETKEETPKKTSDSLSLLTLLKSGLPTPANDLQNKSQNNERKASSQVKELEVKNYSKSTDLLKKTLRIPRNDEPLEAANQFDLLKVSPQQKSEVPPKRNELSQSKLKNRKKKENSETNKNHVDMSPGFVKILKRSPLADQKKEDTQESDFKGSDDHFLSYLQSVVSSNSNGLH
Chain of UniProt P23458 (whole entry, looked up): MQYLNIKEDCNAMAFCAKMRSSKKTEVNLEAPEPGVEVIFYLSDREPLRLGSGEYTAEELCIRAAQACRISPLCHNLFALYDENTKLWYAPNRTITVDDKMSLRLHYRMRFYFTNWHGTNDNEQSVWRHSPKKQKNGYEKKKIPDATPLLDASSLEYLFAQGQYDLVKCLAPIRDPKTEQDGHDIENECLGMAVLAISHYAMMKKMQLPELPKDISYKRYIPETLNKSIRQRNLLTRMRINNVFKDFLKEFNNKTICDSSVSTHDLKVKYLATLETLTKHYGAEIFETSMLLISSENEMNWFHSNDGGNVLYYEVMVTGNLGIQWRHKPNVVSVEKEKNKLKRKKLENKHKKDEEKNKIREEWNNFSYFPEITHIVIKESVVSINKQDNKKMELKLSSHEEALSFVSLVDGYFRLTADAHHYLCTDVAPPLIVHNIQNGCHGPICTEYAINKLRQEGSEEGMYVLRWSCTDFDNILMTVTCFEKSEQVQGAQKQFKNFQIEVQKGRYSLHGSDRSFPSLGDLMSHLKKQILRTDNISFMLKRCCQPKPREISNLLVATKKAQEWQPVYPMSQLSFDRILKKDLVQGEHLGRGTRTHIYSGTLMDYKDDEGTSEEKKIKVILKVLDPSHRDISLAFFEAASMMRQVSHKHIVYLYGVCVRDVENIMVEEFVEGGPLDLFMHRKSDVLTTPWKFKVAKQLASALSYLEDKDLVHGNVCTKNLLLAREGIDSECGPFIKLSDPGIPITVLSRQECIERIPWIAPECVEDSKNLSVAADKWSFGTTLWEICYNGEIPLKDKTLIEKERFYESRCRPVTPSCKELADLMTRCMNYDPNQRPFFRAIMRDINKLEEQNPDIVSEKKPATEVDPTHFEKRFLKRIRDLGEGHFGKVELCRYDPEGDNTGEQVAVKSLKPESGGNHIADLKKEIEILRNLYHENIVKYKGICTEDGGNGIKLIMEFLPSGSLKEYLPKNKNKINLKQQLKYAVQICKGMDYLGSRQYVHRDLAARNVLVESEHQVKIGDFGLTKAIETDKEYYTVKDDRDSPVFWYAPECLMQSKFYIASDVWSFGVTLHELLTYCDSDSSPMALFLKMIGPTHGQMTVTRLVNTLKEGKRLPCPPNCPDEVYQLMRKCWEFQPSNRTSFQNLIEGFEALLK

C=CC(=O)Nc1cc(-c2nn(C3CCC(N4CCN(C(C)=O)CC4)CC3)c3ncnc(N)c23)ccc1Oc1ccccc1 (stereo not drawn) — inhibition (ULK3 (Homo sapiens, UniProt Q6PHR2); inhibitor, KiNativ profiling; biochemical; 2 µM): -0.2%
C[n+]1cn([C@@H]2O[C@H](COP(=O)(O)NP(=O)([O-])OP(=O)(O)O)[C@@H](O)[C@H]2O)c2nc(N)nc(O)c21 — inhibition (mRNA decapping complex subunit 2, with Dcp1 (dcp2, Schizosaccharomyces pombe, UniProt O13828); 200 µM, 0.5 h): 15.1%
O=S(=O)(F)CCc1cn(-c2ccc(Cl)c(Cl)c2)nn1 — inhibition (ache (Electrophorus electricus, UniProt O42275); Ellman; 20 µM): 40.5 ± 3.3%
CC(C)[C@H]1NC(=O)C[C@H]2/C=C/CCSSC[C@@H](NC1=O)C(=O)N[C@H](Cc1cccc3ccccc13)C(=O)NCC(=O)O2 — inhibition (MARK3 (Homo sapiens, UniProt P27448); enzyme activity, inhibitor; 10 µM): -3.4%
COc1ccc(F)cc1S(=O)(=O)Nc1cnc2c(c1)C(=O)NCCO2 — inhibition (calcium channel, L-type, Phenylalkylamine site; radioligand binding; 10 µM): 0%
O=C(NC1CCN(c2ncnc3[nH]cnc23)CC1)c1cccc(NS(=O)(=O)c2ccc(C(F)(F)F)cc2)c1 — inhibition (Replicase polyprotein 1ab, nsp14 (Human coronavirus OC43, UniProt P0C6X6); enzyme activity; 50 µM): 86.9%
CS(C)(=O)=Nc1ccc(-c2ccc(-c3nc4cc(O[C@@H]5CO[C@H]6[C@@H]5OC[C@H]6O)[nH]c4cc3F)cc2)cc1 — inhibition (Tyrosine-protein kinase JAK1, JH1 (JAK1, Homo sapiens, UniProt P23458); enzyme activity, inhibitor; 10 µM): 13%
CN(C)[C@H]1C[C@@]23CC[C@@]4(O2)C(=CC[C@]2(C)[C@@H](c5ccc6ccncc6c5)CC[C@H]24)C=C3[C@@H](O)[C@@H]1O — inhibition (WNK2 (Homo sapiens, UniProt Q9Y3S1); ATP probe labelling, inhibitor, KiNativ profiling; 1 µM): 1.5%
O=C(Nc1nccs1)c1c(O)c2c(n(Cc3ccccc3)c1=O)CCCC2 — inhibition (ppa (Escherichia coli, UniProt P0A7A9); inhibitor, counter-screen, coupling enzyme alone; 30 µM): 15.9%
O=C(O)c1ccccc1/C=N/Nc1nc(-c2ccccc2Cl)cs1 — inhibition (FYN isoform b; enzyme activity; 1 µM): -7.6%
N[C@H](C(=O)N1CCCC1)C1CCN(c2nccc3c(-c4ncc(Cl)cc4Cl)cccc23)CC1 — inhibition (PADI2 (Homo sapiens, UniProt Q9Y2J8); enzyme activity, inhibitor; 0.0983 µM, added: Ca2+ 0.25 mM): 77.6%
OB(O)c1ccccc1-c1ccc(-c2ccccc2)cc1 — inhibition (Beta-lactamase (ampC, Escherichia coli K-12, UniProt P00811); enzyme activity, inhibitor, CENTA hydrolysis absorbance; 10 µM): < 10%
